Experimental data collected from several papers.
Each line is one published result; not all experiments were run side by side. ± marks the error that the study gave. In brackets after ≈: the same amount, converted by molar mass.
NOX4: NADPH oxidase 4 (NOX4, Homo sapiens, UniProt Q9NPH5)
Salicylate synthetase, Irp9: Salicylate synthetase, Irp9 (Yersinia enterocolitica, UniProt Q9X9I8)
Neuronal acetylcholine receptor; alpha3/beta2: Neuronal acetylcholine receptor; alpha3/beta2 (Rattus norvegicus, UniProt P04757+P12390)
DUOX1: DUOX1 (Homo sapiens, UniProt Q9NRD9)
Chrna3/Chrnb2/Chrna6 with beta3 subunit: Chrna3/Chrnb2/Chrna6, with beta3 subunit (Rattus norvegicus, UniProt P04757+P12390+P43143)
ache: Acetylcholinesterase (ache, Electrophorus electricus, UniProt O42275)
CYBB: NADPH oxidase 2 (CYBB, Homo sapiens, UniProt P04839)

Protein sequences, listed by entry. Tags and fused reporters are not part of them. Residues count along the entry.
UniProt Q9X9I8, 1-434: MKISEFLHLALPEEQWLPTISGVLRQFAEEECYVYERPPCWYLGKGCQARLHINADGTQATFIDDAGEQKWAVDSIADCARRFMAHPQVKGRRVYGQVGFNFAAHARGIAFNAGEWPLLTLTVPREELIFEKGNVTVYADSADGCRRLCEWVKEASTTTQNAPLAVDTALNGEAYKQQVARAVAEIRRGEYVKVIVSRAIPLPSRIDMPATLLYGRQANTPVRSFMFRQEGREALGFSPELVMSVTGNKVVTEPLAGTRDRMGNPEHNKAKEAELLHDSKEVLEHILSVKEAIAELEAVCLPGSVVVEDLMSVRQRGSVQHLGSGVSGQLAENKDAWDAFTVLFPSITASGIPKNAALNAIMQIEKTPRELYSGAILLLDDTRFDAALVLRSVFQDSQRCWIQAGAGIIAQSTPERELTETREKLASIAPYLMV
UniProt P04757, whole entry, looked up: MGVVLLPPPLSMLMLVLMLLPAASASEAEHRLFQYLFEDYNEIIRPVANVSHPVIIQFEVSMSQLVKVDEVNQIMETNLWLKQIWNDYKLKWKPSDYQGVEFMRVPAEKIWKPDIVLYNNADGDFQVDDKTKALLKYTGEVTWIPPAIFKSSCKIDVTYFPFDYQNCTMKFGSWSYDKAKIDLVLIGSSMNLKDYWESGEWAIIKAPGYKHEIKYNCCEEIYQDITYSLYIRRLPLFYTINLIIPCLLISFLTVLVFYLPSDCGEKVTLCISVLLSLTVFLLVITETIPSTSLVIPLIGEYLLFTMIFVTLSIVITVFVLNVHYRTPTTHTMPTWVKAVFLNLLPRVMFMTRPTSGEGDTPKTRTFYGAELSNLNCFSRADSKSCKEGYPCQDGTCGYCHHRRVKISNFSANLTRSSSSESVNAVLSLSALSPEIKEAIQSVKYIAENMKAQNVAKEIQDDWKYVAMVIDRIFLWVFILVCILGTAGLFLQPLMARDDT
UniProt P04757, 26-499 limits assumed: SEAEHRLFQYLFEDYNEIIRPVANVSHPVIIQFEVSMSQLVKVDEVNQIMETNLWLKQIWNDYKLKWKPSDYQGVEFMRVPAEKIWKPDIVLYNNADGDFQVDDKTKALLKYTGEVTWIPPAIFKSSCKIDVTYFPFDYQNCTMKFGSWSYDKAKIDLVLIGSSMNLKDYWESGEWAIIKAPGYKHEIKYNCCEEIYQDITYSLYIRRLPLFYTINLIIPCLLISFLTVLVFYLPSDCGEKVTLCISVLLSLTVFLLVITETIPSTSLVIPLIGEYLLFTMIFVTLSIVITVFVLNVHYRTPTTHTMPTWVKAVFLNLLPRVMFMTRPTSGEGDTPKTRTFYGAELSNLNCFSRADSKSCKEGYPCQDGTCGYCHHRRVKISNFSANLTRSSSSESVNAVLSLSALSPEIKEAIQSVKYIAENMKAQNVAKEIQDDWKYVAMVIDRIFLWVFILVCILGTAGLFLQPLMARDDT
UniProt P12390, whole entry, looked up: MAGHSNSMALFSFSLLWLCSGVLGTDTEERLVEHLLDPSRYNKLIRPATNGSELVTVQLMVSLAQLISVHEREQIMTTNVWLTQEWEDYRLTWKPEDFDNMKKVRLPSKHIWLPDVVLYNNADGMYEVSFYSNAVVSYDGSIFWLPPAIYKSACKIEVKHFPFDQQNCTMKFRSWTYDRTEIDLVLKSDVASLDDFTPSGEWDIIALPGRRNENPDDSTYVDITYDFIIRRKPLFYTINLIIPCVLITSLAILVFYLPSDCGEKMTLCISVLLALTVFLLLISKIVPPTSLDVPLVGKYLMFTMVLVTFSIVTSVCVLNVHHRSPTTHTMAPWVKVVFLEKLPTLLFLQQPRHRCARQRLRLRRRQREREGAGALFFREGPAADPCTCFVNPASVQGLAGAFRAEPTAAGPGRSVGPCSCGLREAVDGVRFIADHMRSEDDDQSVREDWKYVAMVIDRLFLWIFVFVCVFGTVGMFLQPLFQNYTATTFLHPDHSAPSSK
UniProt P12390, 25-500 limits assumed: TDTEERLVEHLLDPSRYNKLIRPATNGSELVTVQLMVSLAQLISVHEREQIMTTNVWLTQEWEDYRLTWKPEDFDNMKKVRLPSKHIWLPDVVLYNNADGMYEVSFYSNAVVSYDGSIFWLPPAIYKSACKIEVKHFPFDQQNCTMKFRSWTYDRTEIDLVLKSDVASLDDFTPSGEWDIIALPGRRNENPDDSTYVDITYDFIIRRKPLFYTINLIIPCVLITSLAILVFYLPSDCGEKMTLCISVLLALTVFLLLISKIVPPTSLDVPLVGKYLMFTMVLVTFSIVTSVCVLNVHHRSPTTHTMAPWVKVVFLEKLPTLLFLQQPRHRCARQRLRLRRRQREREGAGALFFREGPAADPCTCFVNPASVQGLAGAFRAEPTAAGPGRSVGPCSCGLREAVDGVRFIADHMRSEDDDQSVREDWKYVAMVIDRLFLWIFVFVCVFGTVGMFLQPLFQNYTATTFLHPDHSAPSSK
UniProt P43143, whole entry M241L/F253L/V303I/V320I/I327V/A333T/K339T, looked up: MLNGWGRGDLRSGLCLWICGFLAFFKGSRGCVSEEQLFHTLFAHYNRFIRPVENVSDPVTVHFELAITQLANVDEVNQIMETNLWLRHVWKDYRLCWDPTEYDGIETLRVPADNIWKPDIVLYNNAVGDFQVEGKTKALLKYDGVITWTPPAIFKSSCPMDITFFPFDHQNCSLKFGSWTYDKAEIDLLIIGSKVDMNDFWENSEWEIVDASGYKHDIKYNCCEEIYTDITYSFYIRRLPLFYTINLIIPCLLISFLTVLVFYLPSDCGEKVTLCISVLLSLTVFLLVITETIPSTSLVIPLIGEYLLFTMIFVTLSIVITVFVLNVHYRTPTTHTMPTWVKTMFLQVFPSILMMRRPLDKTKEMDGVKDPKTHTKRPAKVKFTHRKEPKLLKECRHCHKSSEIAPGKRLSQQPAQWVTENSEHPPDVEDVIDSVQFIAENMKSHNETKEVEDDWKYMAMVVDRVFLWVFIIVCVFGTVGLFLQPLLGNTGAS
UniProt O42275, 24-633 limits assumed: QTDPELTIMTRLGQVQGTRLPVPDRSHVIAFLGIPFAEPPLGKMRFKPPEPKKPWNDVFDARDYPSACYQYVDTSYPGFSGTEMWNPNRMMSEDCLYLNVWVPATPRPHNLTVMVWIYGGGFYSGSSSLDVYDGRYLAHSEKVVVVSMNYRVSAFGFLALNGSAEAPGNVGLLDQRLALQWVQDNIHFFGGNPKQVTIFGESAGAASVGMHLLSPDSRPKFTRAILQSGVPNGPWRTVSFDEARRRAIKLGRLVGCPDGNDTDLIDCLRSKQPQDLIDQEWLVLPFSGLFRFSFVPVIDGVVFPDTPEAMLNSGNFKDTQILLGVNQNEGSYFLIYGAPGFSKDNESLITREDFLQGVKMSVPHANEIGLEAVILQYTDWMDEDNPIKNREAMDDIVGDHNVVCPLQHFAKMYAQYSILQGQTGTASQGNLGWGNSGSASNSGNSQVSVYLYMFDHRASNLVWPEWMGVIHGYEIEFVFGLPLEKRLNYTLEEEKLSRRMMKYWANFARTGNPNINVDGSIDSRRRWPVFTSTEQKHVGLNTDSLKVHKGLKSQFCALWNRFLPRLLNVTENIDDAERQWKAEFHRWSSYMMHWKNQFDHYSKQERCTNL
UniProt P12392, whole entry, looked up: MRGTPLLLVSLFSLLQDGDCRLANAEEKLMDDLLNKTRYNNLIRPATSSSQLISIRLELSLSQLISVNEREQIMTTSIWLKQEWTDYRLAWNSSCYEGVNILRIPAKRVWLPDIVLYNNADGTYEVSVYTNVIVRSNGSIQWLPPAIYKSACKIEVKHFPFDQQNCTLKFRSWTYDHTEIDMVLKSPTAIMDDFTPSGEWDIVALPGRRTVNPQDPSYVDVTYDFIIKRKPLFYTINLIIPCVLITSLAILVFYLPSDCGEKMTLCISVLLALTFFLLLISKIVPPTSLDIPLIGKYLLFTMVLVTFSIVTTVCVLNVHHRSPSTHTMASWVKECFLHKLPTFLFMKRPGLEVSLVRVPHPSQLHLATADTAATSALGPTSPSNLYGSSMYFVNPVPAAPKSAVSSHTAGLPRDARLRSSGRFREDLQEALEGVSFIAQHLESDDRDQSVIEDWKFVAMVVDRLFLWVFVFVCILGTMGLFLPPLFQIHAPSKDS
UniProt P11229, whole entry: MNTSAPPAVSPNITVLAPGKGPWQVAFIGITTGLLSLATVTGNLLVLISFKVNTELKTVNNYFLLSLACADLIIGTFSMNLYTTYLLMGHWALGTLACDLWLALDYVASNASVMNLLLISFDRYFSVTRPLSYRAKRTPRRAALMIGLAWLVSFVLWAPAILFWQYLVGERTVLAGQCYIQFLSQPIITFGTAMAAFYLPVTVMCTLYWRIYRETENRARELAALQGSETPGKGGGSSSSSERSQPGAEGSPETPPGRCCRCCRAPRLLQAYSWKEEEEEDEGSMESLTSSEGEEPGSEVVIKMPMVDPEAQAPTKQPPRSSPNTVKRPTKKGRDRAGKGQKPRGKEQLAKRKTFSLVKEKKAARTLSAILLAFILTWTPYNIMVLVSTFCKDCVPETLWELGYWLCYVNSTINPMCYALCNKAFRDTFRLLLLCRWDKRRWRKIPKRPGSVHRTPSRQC
UniProt P18507, whole entry, looked up: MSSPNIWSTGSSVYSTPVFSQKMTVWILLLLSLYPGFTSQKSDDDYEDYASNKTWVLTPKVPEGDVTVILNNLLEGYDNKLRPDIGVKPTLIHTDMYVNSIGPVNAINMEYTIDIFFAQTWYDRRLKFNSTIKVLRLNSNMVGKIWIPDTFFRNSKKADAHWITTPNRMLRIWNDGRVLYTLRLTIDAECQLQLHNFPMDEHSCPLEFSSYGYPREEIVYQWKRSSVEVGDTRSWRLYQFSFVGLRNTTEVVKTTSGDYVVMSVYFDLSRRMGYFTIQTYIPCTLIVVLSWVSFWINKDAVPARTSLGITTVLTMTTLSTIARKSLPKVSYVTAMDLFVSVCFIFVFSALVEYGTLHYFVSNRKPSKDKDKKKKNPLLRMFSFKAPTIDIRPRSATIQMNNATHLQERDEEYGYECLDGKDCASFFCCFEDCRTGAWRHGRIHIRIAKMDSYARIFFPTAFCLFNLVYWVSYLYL
UniProt P28472, whole entry, looked up: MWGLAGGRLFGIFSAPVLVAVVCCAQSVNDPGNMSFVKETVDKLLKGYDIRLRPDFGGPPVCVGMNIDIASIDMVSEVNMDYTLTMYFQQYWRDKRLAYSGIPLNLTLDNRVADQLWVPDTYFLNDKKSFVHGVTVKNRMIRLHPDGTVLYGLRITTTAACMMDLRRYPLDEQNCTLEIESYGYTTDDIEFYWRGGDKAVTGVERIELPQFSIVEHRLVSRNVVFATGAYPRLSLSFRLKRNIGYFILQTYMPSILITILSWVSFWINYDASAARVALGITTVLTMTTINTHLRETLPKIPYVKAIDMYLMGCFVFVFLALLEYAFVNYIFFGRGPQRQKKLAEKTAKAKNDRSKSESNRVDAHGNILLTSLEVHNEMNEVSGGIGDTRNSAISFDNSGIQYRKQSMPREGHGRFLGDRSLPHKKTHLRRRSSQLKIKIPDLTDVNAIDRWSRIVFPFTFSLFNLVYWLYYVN
UniProt P48169, whole entry, looked up: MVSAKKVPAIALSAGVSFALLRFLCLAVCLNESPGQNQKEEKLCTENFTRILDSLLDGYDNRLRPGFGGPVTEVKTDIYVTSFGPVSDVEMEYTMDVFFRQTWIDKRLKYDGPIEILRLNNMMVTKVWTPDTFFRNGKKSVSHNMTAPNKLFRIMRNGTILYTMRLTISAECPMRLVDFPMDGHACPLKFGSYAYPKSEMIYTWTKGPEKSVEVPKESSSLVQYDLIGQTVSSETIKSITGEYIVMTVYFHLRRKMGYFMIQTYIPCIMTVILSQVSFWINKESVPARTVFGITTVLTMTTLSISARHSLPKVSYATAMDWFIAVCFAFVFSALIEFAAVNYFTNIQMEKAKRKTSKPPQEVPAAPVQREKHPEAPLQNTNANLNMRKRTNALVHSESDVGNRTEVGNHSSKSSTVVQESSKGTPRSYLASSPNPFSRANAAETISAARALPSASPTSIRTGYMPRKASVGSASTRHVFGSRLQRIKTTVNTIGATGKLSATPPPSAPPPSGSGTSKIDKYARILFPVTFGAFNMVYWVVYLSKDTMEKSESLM
UniProt Q9KTW3, 1-489: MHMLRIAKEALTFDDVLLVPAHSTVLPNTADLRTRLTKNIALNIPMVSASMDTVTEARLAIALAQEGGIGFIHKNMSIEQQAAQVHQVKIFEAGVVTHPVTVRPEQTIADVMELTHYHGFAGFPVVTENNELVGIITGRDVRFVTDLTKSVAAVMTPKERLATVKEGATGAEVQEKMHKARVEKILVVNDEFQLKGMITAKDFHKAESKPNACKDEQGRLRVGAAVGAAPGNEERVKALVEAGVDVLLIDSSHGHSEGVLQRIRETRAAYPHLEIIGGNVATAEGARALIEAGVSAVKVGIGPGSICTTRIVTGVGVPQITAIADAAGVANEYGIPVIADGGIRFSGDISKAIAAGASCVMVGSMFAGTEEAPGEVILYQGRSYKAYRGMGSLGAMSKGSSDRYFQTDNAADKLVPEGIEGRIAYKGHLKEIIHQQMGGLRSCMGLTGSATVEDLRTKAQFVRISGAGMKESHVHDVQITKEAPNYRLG
UniProt P0A9J8, 1-92 limits assumed: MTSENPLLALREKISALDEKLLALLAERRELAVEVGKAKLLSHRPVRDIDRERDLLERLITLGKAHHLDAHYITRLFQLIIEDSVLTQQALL

CC(C)C[C@@H]1NC(=O)[C@H](CCC(=O)O)NC(=O)[C@@H]2CCCN2C(=O)[C@H](Cc2c[nH]cn2)NC(=O)[C@H](CCCCC(=O)O)NC(=O)[C@H](CC(C)C)NC(=O)[C@H](Cc2c[nH]cn2)NC(=O)[C@@H]2CSSC[C@H](NC(=O)CN)C(=O)N[C@@H](CSSC[C@@H](C(N)=O)NC1=O)C(=O)N[C@@H](CO)C(=O)N[C@@H](Cc1c[nH]cn1)C(=O)N1CCC[C@H]1C(=O)N[C@@H](C)C(=O)N2 — IC50 (Nicotinic acetylcholine receptor alpha6/alpha3/beta4 (Rattus norvegicus, UniProt P04757+P12392+P43143); ACh-evoked current, antagonist, two-electrode voltage clamp; Xenopus laevis oocytes; with: ACh 300 µM): 43.1 nM
CCN1CCN(Cc2ccc(NC(=O)c3ccc(C)c(/C=C/c4cnc5[nH]ccc5c4OC)c3)cc2C(F)(F)F)CC1 — log2 fold change (ETV6-SYK fusion; kinase-CDC37 interaction, cell-based kinome screen; 5 µM; relative to: vehicle): 0.362
COc1ccc2nc(Sc3ncnc4c3nnn4Cc3ccccc3)oc2c1 — IC50 (NOX4; enzyme activity, inhibitor, Amplex Red; cell-free membranes): > 100000 nM
O=C(O)c1cc(S(=O)(=O)Nc2ccccc2C(=O)O)ccc1Br — IC50 (Salicylate synthetase, Irp9; pyruvate production, inhibitor; 25 °C, with: chorismate 10 µM): > 160000 nM
N#Cc1c(-c2ccc(-c3no[n+]([O-])c3C#N)cc2)no[n+]1[O-] — IC50 (Thioredoxin glutathione reductase (Schistosoma mansoni, UniProt Q962Y6); enzyme activity, inhibitor): 1000 nM
CC#C/C(=N\OC[C@H]1COCCN1)c1ccc2ncnc(Nc3ccc(OCc4cccc(F)c4)c(Cl)c3)c2c1 — inhibition (ITK (Homo sapiens, UniProt Q08881); kinase activity; 10 µM): 8%
CN(CCCl)Cc1cc(Cl)c(NC2=NCCN2)c(Cl)c1 — IC50 (KCNJ2 (Homo sapiens, UniProt P63252); inward current, inhibitor, automated patch clamp; 3 min per concentration, room temperature, cumulative, at -120 mV): 25000 nM
O=c1ccc2nc3ccc(O)cc3oc-2c1 — MIC90 (Mycobacterium tuberculosis; mc2 6206 clofazimine-resistant fbiC mutant; 7 days): > 256 µM
COP(=O)(OC)O/C(C)=C1\CCOC1=O — IC50 (ACHE (Homo sapiens, UniProt P22303); enzyme activity, inhibitor, Ellman; 30 min, 25 °C): 70000 nM
CCCN1CCN(c2ccc3c(c2)C2CC3CCN2C(=O)OCc2ccccc2)CC1 (stereo not shown) — Ki (CHRM1 (Homo sapiens, UniProt P11229); binding, radioligand binding): 4060 nM
Fc1ccc2nc(Sc3ncnc4c3nnn4Cc3ccccc3)oc2c1 — IC50 (NADPH oxidase 5 (NOX5, Homo sapiens, UniProt Q96PH1); enzyme activity, inhibitor, Amplex Red; cell-free membranes): 1500 ± 30 nM
CC(C)[C@@H]1NC(=O)[C@H](CO)NC(=O)[C@@H]2CSSC[C@H](NC(=O)CN)C(=O)N[C@@H](CSSC[C@@H](C(N)=O)NC(=O)[C@H](C)NC(=O)[C@H](CCC(=O)O)NC(=O)[C@@H]3CCCN3C(=O)[C@H](Cc3c[nH]cn3)NC(=O)[C@H](CC(N)=O)NC1=O)C(=O)N[C@@H](CO)C(=O)N[C@@H](Cc1c[nH]cn1)C(=O)N1CCC[C@H]1C(=O)N[C@@H](C)C(=O)N2 — IC50 (Neuronal acetylcholine receptor; alpha3/beta2; ion current, antagonist, two-electrode voltage clamp; Xenopus laevis oocytes; with: 100 µM acetylcholine): 733 nM
C=C(C)[C@@H]1[C@H]2OC(=O)[C@@H]1[C@]1(O)C[C@H]3O[C@]34C(=O)O[C@H]2[C@]14C — IC50 (GABA A receptor alpha-4/beta-3/gamma-2 (Homo sapiens, UniProt P18507+P28472+P48169); chloride current, inhibitor, whole-cell voltage clamp; L929; 3 min preincubation, with: GABA at EC90): 3000 nM
O=C(Cn1c(-c2ccccn2)nc2ccccc21)Nc1ccc2ccccc2c1 — IC50 (guaB (Vibrio cholerae, UniProt Q9KTW3); enzyme activity, inhibitor; with: 1 mM IMP): > 5000 nM
Brc1ccc2nc(Sc3ncnc4c3nnn4Cc3ccccc3)oc2c1 — IC50 (NOX4; enzyme activity, inhibitor, Amplex Red; cell-free membranes): > 100000 nM
CCCCOc1ccc2nc3ccc(=O)cc-3oc2c1 — MIC90 (Mycobacterium tuberculosis; mc2 6206 clofazimine-resistant fbiC mutant; 7 days): 6.7 µM (≈ 1.8 µg/mL)
CC(C)NCC(O)COc1ccc(CC(N)=O)cc1 (stereo not shown) — IC50 (Beta-1 adrenergic receptor, high-affinity state (Cavia porcellus, UniProt H0W3H1); binding; lung membranes; high-affinity site, with: [3H]dihydroalprenolol 2 nM): 0.6 nM
O=C(O)CNCC(=O)O — IC50 (blaNDM-1 (Klebsiella pneumoniae, UniProt C7C422); enzyme activity, inhibitor; with: meropenem substrate): 122000 nM
FC(F)(F)c1ccc2nc(Sc3ncnc4c3nnn4Cc3ccccc3)oc2c1 — IC50 (DUOX1; enzyme activity, inhibitor, Amplex Red; cell-free membranes): > 15000 nM
C[As](SC[C@H](NC(=O)CC[C@H](N)C(=O)O)C(=O)NCC(=O)O)SC[C@H](NC(=O)CC[C@H](N)C(=O)O)C(=O)NCC(=O)O — IC50 (PGR (Homo sapiens, UniProt P06401); DNA binding, fluorescence polarization; with: FITC-labelled GRE DNA): 500 nM
CC(C)[C@@H]1NC(=O)[C@H](CO)NC(=O)[C@@H]2CSSC[C@H](NC(=O)CN)C(=O)N[C@@H](CSSC[C@@H](C(N)=O)NC(=O)[C@H](CCCNC(=N)N)NC(=O)[C@H](CCC(=O)O)NC(=O)[C@@H]3CCCN3C(=O)[C@H](Cc3c[nH]cn3)NC(=O)[C@H](CC(N)=O)NC1=O)C(=O)N[C@@H](CO)C(=O)N[C@@H](Cc1c[nH]cn1)C(=O)N1CCC[C@H]1C(=O)N[C@@H](C)C(=O)N2 — IC50 (Chrna3/Chrnb2/Chrna6 with beta3 subunit; ion current, antagonist, two-electrode voltage clamp; Xenopus laevis oocytes; with: 100 µM acetylcholine): 54 nM
COC(=O)Oc1c(Cl)cc2oc(=O)sc2c1[N+](=O)[O-] — IC50 (Salicylate synthetase, Irp9; pyruvate production, inhibitor; 25 °C, with: chorismate 10 µM): > 160000 nM
CC(C)Cc1ccc(C(C)C(=O)OCc2ccc(OC(=O)OCC[Si](C)(C)C)cc2)cc1 (stereo not shown) — IC50 (ache; enzyme activity, inhibitor, Ellman): 1190 ± 200 nM
CC(Cc1ccc(O)cc1)NCC(O)c1cc(O)cc(O)c1 (stereo not shown) — IC50 (HTR2A (Homo sapiens, UniProt P28223); binding): 3400 nM
COC(=O)Oc1c([N+](=O)[O-])cc2oc(=O)sc2c1[N+](=O)[O-] — IC50 (Salicylate synthetase, Irp9; pyruvate production, inhibitor; 25 °C, with: chorismate 10 µM): 5000 ± 2000 nM
c1ccc(Cn2nnc3c(Sc4nc5ccccc5[nH]4)ncnc32)cc1 — IC50 (CYBB; enzyme activity, inhibitor, MCLA chemiluminescence; cell-free membranes): > 100000 nM
CCCC[C@@H]1NC(=O)[C@H](CO)NC(=O)[C@@H]2CSSC[C@H](NC(=O)CN)C(=O)N[C@@H](CSSC[C@@H](C(N)=O)NC(=O)[C@H](CC(C)C)NC(=O)[C@H](CCC(=O)O)NC(=O)[C@@H]3CCCN3C(=O)[C@H](Cc3c[nH]cn3)NC(=O)[C@H](CC(N)=O)NC1=O)C(=O)N[C@@H](CO)C(=O)N[C@@H](Cc1c[nH]cn1)C(=O)N1CCC[C@H]1C(=O)N[C@@H](C)C(=O)N2 — IC50 (Chrna3/Chrnb2/Chrna6 with beta3 subunit; ion current, antagonist, two-electrode voltage clamp; Xenopus laevis oocytes; with: 100 µM acetylcholine): 19.9 nM
CC(C)Cc1ccc(C(C)C(=O)OCc2ccc(OC(=O)OCCC(C)(C)C)cc2)cc1 (stereo not shown) — IC50 (ache; enzyme activity, inhibitor, Ellman): 1930 ± 640 nM
CC(C)c1ccc2nc(Sc3ncnc4c3nnn4Cc3ccccc3)oc2c1 — IC50 (CYBB; enzyme activity, inhibitor, MCLA chemiluminescence; cell-free membranes): > 100000 nM
CC(C)C[C@@H]1NC(=O)[C@H](CCC(=O)O)NC(=O)[C@@H]2CCCN2C(=O)[C@H](Cc2c[nH]cn2)NC(=O)[C@H](CC(N)=O)NC(=O)[C@H](C)NC(=O)[C@H](CO)NC(=O)[C@@H]2CSSC[C@H](NC(=O)CN)C(=O)N[C@@H](CSSC[C@@H](C(N)=O)NC1=O)C(=O)N[C@@H](CO)C(=O)N[C@@H](Cc1c[nH]cn1)C(=O)N1CCC[C@H]1C(=O)N[C@@H](C)C(=O)N2 — IC50 (Neuronal acetylcholine receptor; alpha3/beta2; ion current, antagonist, two-electrode voltage clamp; Xenopus laevis oocytes; with: 100 µM acetylcholine): 3.37 nM
CCC(C)C1NC(=O)/C(=C(/C)O)C1=O (stereo not shown) — IC50 (AHA2, C-terminal 40-residue truncation (Arabidopsis thaliana, UniProt P19456); ATP hydrolysis, inhibitor): 3700 nM
Clc1ccc2nc(Sc3ncnc4c3nnn4Cc3ccccc3)oc2c1 — IC50 (DUOX1; enzyme activity, inhibitor, Amplex Red; cell-free membranes): > 15000 nM
Cn1cnc2ncn(Cc3nc(CCc4ccc(Cl)cc4)no3)c(=O)c21 — IC50 (Trpa1 (Mus musculus, UniProt Q8BLA8); calcium influx, antagonist, FlexStation calcium; HEK-293T transfected; with: CS gas at EC50): 280 nM
CC(C)C[C@@H]1NC(=O)[C@H](CC(=O)O)NC(=O)[C@@H]2CCCN2C(=O)[C@H](Cc2c[nH]cn2)NC(=O)[C@H](CC(N)=O)NC(=O)[C@H](C(C)C)NC(=O)[C@H](CO)NC(=O)[C@@H]2CSSC[C@H](NC(=O)CN)C(=O)N[C@@H](CSSC[C@@H](C(N)=O)NC1=O)C(=O)N[C@@H](CO)C(=O)N[C@@H](Cc1c[nH]cn1)C(=O)N1CCC[C@H]1C(=O)N[C@@H](C)C(=O)N2 — IC50 (Chrna3/Chrnb2/Chrna6 with beta3 subunit; ion current, antagonist, two-electrode voltage clamp; Xenopus laevis oocytes; with: 100 µM acetylcholine): 21 nM
c1ccc(Cn2nnc3c(Sc4nc5ncccc5o4)ncnc32)cc1 — IC50 (NADPH oxidase 1 (NOX1, Homo sapiens, UniProt Q9Y5S8); enzyme activity, inhibitor, Amplex Red; cell-free membranes): 40000 ± 5000 nM
O=[N+]([O-])c1cc(S(=O)(=O)c2cc([N+](=O)[O-])c(O)c([N+](=O)[O-])c2)cc([N+](=O)[O-])c1O — IC50 (Bifunctional chorismate mutase/prephenate dehydratase, chorismate mutase domain (pheA, Escherichia coli, UniProt P0A9J8); chorismate consumption, inhibitor; 37 °C, with: chorismate 600 µM): 82000 ± 2000 nM
CC(C)C[C@@H]1NC(=O)[C@H](CCC(=O)O)NC(=O)[C@@H]2CCCN2C(=O)[C@H](Cc2c[nH]cn2)NC(=O)[C@H](CCCCCC(=O)O)NC(=O)[C@H](CC(C)C)NC(=O)[C@H](Cc2c[nH]cn2)NC(=O)[C@@H]2CSSC[C@H](NC(=O)CN)C(=O)N[C@@H](CSSC[C@@H](C(N)=O)NC1=O)C(=O)N[C@@H](CO)C(=O)N[C@@H](Cc1c[nH]cn1)C(=O)N1CCC[C@H]1C(=O)N[C@@H](C)C(=O)N2 — IC50 (Chrna3/Chrnb2/Chrna6 with beta3 subunit; ion current, antagonist, two-electrode voltage clamp; Xenopus laevis oocytes; with: 100 µM acetylcholine): 50.3 nM

Some of these lines once more:
O=c1ccc2nc3ccc(O)cc3oc-2c1 — MIC90 (Mycobacterium tuberculosis; mc2 6206 clofazimine-resistant fbiC mutant; 7 days): > 256 µM
COP(=O)(OC)O/C(C)=C1\CCOC1=O — IC50 (ACHE (Homo sapiens, UniProt P22303); enzyme activity, inhibitor, Ellman; 30 min, 25 °C): 70000 nM
CCCN1CCN(c2ccc3c(c2)C2CC3CCN2C(=O)OCc2ccccc2)CC1 (stereo not shown) — Ki (CHRM1 (Homo sapiens, UniProt P11229); binding, radioligand binding): 4060 nM
Fc1ccc2nc(Sc3ncnc4c3nnn4Cc3ccccc3)oc2c1 — IC50 (NADPH oxidase 5 (NOX5, Homo sapiens, UniProt Q96PH1); enzyme activity, inhibitor, Amplex Red; cell-free membranes): 1500 ± 30 nM
